# Measurements pooled from the literature.
# Each numbered part is a random draw from the data of one study; scales do not carry over between parts.

# Sample 1
# Target: RING finger protein unkempt homolog, zinc fingers 1-6, GST-SBP tag (UNK, Homo sapiens, UniProt Q9C0B0, residues 30-357)
# UniProt Q9C0B0, sequence (30-357, looked up): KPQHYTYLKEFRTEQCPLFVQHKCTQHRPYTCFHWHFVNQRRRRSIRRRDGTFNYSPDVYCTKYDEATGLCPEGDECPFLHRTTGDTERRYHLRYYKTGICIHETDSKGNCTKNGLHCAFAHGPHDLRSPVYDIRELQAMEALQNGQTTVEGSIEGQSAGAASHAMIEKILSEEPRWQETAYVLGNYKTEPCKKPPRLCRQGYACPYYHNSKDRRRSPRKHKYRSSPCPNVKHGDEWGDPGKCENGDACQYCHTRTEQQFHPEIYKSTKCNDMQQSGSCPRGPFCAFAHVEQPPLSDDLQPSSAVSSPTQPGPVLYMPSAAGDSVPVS
# Method: RNA Bind-n-Seq
# Form: RNA
# Sample: in vitro
# Concentration: not given
# Notes: RNA with constant flanks, human-mouse chimeric sites, ends assumed
# Baseline: input RNA pool
# Direction: higher = stronger binding
Strand,bound/input enrichment
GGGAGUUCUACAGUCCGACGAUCUCUUUAAAAAAAAAAUUACCUUUUCUGCAUAUUAUAGCCCUCCCAUAGAUCCACGUUCAAGCUCAAAGGCCAAAACUUUUGCACGGAGCUCAAACAUCUGAUGAAGAAAGAUUUCUGAGACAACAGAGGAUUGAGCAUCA,4.71 ratio
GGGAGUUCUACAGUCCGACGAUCCUGUGACCACAAGAUCCUACCUGAGUGGCAGCUGAAGUUGACUCCCUCUCCUUGCCUGAACCCCCCCCUUUUGUUCCCCCAUCCCCCAGUGUCGGCUAUUCUCUGGUCUCUGCACGGUUCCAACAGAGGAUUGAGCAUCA,1.92 ratio
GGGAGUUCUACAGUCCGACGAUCCUGUUUUGACAGCCACAAAUUCUUGGCAUGUAUUAAGGAAAAAAAAAAUCCCUGUUGAAGUAGUUUUUCCACCUAUCAGCACUGAGUAAAUGCCAUAACUCCGCGGAAAUGGUCUAAAUACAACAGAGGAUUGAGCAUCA,0.235 ratio
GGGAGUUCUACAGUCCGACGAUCUACUCAACUUUCUUGCCACAUUUUGAAUUCCAAGACAUUAUUCCUCCAGAUGACUUCCUAACGAGUGAUGAAGAAGUAGAUUCCGUUUUAUUUGGAACUAUGAGAGGACAAGUUGUUGGACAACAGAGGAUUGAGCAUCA,0.214 ratio
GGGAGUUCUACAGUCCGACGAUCUAAAUUAGCCAGCACCAUUUCUGUUUCGCCCUGAGCUGCGGAAAGCCAGAAGAUUUUAUCUAGCUUAUACAAGGCUGCUGGUGUUCCCUCUUUUUUUCCACGAGGGUGUUUUUGGCUGCACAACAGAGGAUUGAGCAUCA,0.723 ratio
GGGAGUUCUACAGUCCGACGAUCUUAAUCCCCUUUACUGCUCCCCCACUUCUCAUGGUAAUGACAAAAACUUAUAUCCCCGUCCUAGCUUUUACUCAGAUGGCUUAUGGAGCCGGUUUCCUAGCUUUCUUGGGAGGGAUCAGACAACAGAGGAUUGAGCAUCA,0.847 ratio
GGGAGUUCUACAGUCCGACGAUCGGCCUGGACCUUCCUGGGGCUAGUACAAAUAGCGGCAGUGGAGGCUCGAGAGGAAAGUUUGUUAGUGGAGGCAGUGGAGAGGUCGUCCAUGUACGGUCCUUUACUCGAUAGAUGUGUUCUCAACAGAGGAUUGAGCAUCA,0.357 ratio
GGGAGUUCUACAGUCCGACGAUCGGACAUCUGUCAAAUUGUUAUGUUCCUAAAAACGUAGUGAACACUCUGAUACACUUCAUCUGCUUGUACAUCUGUAUGAUAGAGAAAUGUAAAUAUGAAUAUAUUUACAAUGUGUCACUUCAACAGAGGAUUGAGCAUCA,0.141 ratio
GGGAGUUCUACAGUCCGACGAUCGGUGGGGGGUUGUCAUUCGUUUGAGCUGCUGAUUUUCAUGAGUCGCCUUCAAAACUCUCGUGUAGGGUUGACAAUGUGGGGGGGUGGGGGAUCCAGCUAUUUUUUUUAUUUUCAAGUCCACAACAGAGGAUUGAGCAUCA,2.6 ratio
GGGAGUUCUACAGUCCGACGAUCAAAGAGUGGAUAGAGUGUGCACACGGGAUCGGUGGGACCCGGGCGAAAAAGGAGUGCAAGAUAGAAUUCGAUGACUUCGAAGAGUGCUUGCUUCGGUAGAAAACGAUGAGGCGAAUGCAUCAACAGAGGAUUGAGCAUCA,0.526 ratio
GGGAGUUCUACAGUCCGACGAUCUCAACAGACAACAUCAAAUACCAGCCUAAAGGGGGGCAGGUACAAAUUGUUACCAAGAAGAUAGACUUAAGCCAUGUGACAUCCAAAUGUGGCUCUCUGAAGAACAUCCGUCACAGGCCACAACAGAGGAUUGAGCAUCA,0.405 ratio

# Sample 2
# Target: Ras GTPase-activating protein-binding protein 1, RRM domain (G3BP1, Homo sapiens, UniProt Q13283)
# UniProt Q13283, sequence (whole entry, looked up): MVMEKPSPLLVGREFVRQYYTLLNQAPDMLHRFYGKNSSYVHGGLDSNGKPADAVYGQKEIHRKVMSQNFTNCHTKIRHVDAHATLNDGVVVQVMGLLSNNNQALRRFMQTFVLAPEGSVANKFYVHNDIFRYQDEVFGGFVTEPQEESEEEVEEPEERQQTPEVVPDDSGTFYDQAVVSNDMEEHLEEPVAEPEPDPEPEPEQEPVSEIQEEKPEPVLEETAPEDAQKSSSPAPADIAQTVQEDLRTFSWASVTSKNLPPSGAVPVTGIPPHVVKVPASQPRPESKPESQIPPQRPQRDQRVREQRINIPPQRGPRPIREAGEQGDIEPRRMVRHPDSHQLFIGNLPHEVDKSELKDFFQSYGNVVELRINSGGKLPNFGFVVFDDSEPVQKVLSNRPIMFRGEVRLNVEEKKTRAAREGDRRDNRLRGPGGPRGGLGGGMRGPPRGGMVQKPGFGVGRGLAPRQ
# Method: RNA Bind-n-Seq
# Form: RNA
# Sample: in vitro
# Concentration: 1 µM
# Notes: whole 134-nt RNA, ends assumed
# Added: 150 mM KCl
# Baseline: input library
# Direction: higher = stronger binding
Strand,log2 enrichment
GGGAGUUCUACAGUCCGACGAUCCUGUGCUACACAUCGUAUGUACCGAAUCGGGAAAAAAAGGGGAAAAAAAGGAAAAAAAGGGGAAAGUAUUAUGUUACGCCGUUCGGAUCUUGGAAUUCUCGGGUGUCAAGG,0.184
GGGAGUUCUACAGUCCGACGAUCAGUCCUGUGCUACACAUCGUAUGUACCGAAUCGGAAAAAAAGGUUUGGUUUUUUUGGAAAGUAUUAUGUUACGCCGUUCGGAUCUGCACUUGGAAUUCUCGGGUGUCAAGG,-0.326
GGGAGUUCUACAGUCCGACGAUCGUCCUGUGCUACACAUCGUAUGUACCGAAUCGGGAAAAAAAGGGAGGGAAAAAAAGGGAAAGUAUUAUGUUACGCCGUUCGGAUCUGCACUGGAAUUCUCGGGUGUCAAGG,0.3
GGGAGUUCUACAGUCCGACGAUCCUGUGCUACACAUCGUAUGUACCGAAUCGGGGAAAAAAAGGGAAAAAAAGGGAAAAAAAGGGAAAGUAUUAUGUUACGCCGUUCGGAUCUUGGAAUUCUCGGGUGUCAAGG,0.174
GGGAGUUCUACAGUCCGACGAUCCACAGACAACACGCACCCACACAGACACAGAGGGAAGGGGUUGGGAUGGGGACAGGGUGCACAGCAGGGCGGAAAAGGACCCCAGCCCCUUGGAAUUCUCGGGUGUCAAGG,-0.176
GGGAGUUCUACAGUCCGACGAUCCACAGACAACACGCACCCACACAGACACAGAGGGAAGGGGUUGGGAUGGGGACAGGAUGCACAGCAGGGCGGGGUAGGACCCCAGCCCCUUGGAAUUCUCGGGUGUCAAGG,0.0194
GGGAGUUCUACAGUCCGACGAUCCCUCAAGUCCUGUGCUACACAUCGUAUGUACCGAAUCGGGGUGGUGGGUGGGGAAAGUAUUAUGUUACGCCGUUCGGAUCUGCACUUCCAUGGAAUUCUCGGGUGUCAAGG,0.19
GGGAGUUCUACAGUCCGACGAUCGUCCUGUGCUACACAUCGUAUGUACCGAAUCGGGAGGGAAAAAAAGGGAAAAAAAGGGAAAGUAUUAUGUUACGCCGUUCGGAUCUGCACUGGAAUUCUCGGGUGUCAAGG,0.438
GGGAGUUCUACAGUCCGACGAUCAGUCCUGUGCUACACAUCGUAUGUACCGAAUCAAAUUUUUAAAUUUAAACCCCCAAAAAAGUAUUAUGUUACGCCGUUCGGAUCUGCACUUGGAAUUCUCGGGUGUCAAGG,-1.05
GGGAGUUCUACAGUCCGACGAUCUGGCCCUGGUGGCAUGCGGGGAGGAAGAGGUGGCCUCAUGGAUCGUGGUGGUCCCGGUGGAAAGUUCAGAGGUGGCCGUGGUGGAGACAGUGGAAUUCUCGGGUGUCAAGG,0.654

# Sample 3
# Target: RNA binding protein fox-1 homolog 2, RRM domain, GST-SBP tag (RBFOX2, Homo sapiens, UniProt O43251-10, residues 100-194)
# Method: RNA Bind-n-Seq
# Form: RNA
# Sample: in vitro
# Concentration: 365 nM
# Notes: natural RNA segment, single round, ends assumed
# Baseline: no-protein control
# Direction: higher = stronger binding
# Residues (chain): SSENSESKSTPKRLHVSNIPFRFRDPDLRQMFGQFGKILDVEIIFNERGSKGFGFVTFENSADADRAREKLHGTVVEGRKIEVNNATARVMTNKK
Strand,RBNS enrichment (R)
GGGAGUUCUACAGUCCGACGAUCGCCUCUUUCCCCUACUAGCCCCAUGUGACACAUAUUUUUCACACUAUGUGGCAUCAACCAGUGCCAUUACCUCCUGUGGCACCAUAGAGCCCAAUCUCAGGGCAGACAUUUGGAAUUCUCGGGUGCCAA,0.619
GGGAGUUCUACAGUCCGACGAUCGGAGGAUGUGCUGAAGAUGGUCUGGUCCUAACUGCCAGACACAAUGUCCGUGACAUUAAAGGCUCCACAUGAUUGACCACAGCAUGGGAGAGCGGUGUUCUUCACUCGACUGGAAUUCUCGGGUGCCAA,1.57
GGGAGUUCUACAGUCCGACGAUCAGUAAUGGGAUCACCUCACCAUGCCAUGCUCUGGGCUCUCCCUCUCUGUCCAUUUCUGUUUUGCUUUCCUGGCUAAACCCAUCUACCAUUCUUAACACUGGUAGCUCCUGUGGAAUUCUCGGGUGCCAA,0.707
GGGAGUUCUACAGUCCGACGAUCCCUCUUGUUUUUUGCUGCUGUAACUUACCAGAAAGUGUUCUAUAUUUAUUUCUGUUUGAAUUUGAAACAGUGUUAUGCUUACAAGACUUCAUAAUGAUUUUAUGUCUUGCUGGAAUUCUCGGGUGCCAA,1.22
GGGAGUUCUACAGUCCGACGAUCGGAUGGGGGACCUCCACUGGUGACAGAGAAGACACCAGGGUUUGGGGGAUGCCUGGGACUUUCCUCCGGCCUUUUGUAUUUUUAUUUUUGUUCAUCUGCUGCUGUUUACAUGGAAUUCUCGGGUGCCAA,1.28
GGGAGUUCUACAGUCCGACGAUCACAAAACGGUAAUGAACAGAUAGCACUGGGGCAGAAUAUGCAUGCAUUUUGUAACGUCCAGUGUGGCGUUGAAUAGAUGUGUAUUUCCUCCCCUGCAGAAAAUAAGCACAUGGAAUUCUCGGGUGCCAA,1.24
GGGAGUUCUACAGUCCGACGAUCUUUCACUCCCUCUUGGUUUUUAUCAAAUUUGCCAUGACAUUUCAUCUGGGUGGUCUGAAUAUUAAAGCUCUUCAUUUCUGGAGAUGGGGCAGCAGGUGGCUCUUCUGCUGUGGAAUUCUCGGGUGCCAA,0.645
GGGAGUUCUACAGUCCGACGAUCAAAAAUCAAUUAAAUCAUUGUGUUCAACAGGAAUAUUUAAAAUAUUCUGCAUGAAUCCUGUGGCUGUCUUAUUUUAAAUAGCUGCUGCUGUGGGAUUAUAUUUUUUUUCCUGGAAUUCUCGGGUGCCAA,10.3
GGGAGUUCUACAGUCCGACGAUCCGAGCAAAAGACGAGUGAUGCCAUUUGGGCUUAUUUAGAAAAAAGGGUAAGCUAGAGAGAAAAAGAAAGAACUGUCCGUCCCCCUUCCGCCUUCUCCCUUCUCUCACCCCUGGAAUUCUCGGGUGCCAA,0.536
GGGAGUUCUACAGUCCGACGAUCAGAUGCUCAUAGAAGAGGAAGAAUGGGACAUGGCCCCAUGCUUAUUUUUGUUUACAACGUAACAUGGCAUGAGAGAGGGCAGAGAAACUAAGUUGCUGGGGAAAGUUAGAUGGAAUUCUCGGGUGCCAA,1.78
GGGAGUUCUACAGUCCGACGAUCGUCCACCGAAUGUCACUCACUGAGCUGGGGUUGCUUUGUCUGUCUGAUUCAAAAUGUGUCCACACUUCGUAGAGUCUAGAAUACUGGACUGUAGAGAAACUACUUUGAACUGGAAUUCUCGGGUGCCAA,0.459
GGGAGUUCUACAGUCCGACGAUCCUGUCUGCAGUAGGACACUGAAAACAGCAAGAACUUCGGGGUGAACACCCGCUGAUCCUUUAACAAGGAUUUCUGGCAGGAAACUCACAAAAAGGAGAACUGAAAAUUUAUGGAAUUCUCGGGUGCCAA,0.257

# Sample 4
# Target: Interferon regulatory factor 5, full length, phosphomimetic (IRF5, Homo sapiens, UniProt Q13568-2, residues 1-514, S451D/S453D/S456D/S462D)
# Method: protein-binding microarray
# Form: double-stranded DNA, one strand shown
# Sample: in vitro
# Concentration: 940 nM top
# Notes: 60-bp whole probe
# Added: salmon DNA 0.4 mg/ml
# Baseline: random background probes
# Direction: higher = stronger binding
# Shared flanks, not repeated: GCCTAGCAC … GTCTTGATTCGCTTGACGCTGCTG
Strand,fitted relative affinity [z-score]
GACGCTATCCTTTTCCTGACGTGCTAG,0.727
TTAGAACTGGGGACCGGATTAGTGCTA,-0.022
ACACGGCTCTAAACTCATGTAGTGCTA,0.0383
GACGGTCTCGGTTTCTGGACGTGCTAG,4.84
GACGGTATCGGTCTCGTGACGTGCTAG,7.93
TTAGATTTCTGGACTGGATTAGTGCTA,-0.0439
TTAGGACTGGGGACTTGGTTAGTGCTA,-0.225
TCTACAATGGCTTTGCCTTTGTGCTAG,-0.376
CGGATGATCTCTCTGGGCAAGTGCTAG,-0.222
TTAGGTTTCAGACTGGATTAGTGCTAG,2.13
TTAGATATCGGGACTGGATAAGTGCTA,0.0184
GACGGTTTCGGTATCGCGACGTGCTAG,14.2
TCACCTCCCTAATTCTGACTGTGCTAG,0.933
TGCTTTCTCTTTCACTACTCGTGCTAG,4.05
TTAGGACTGGGTTTCGGATAGTGCTAG,2.62
TAAGGACTGGGACTGGGTTAGTGCTAG,-0.316
TTAGATTTCTGTTTCGATTAGTGCTAG,5.05
TTAGGGTCCGGTTTCGGTTAGTGCTAG,7.49
TTCGGTTTCCTACTGCTTTAGTGCTAG,1.27
TTTTTCTCCTATTTAAGACAGTGCTAG,1.45
TTAGGTATCCTTTGCCTTTAGTGCTAG,0.206
GACGAACTGGGGACTGGCGACGTGCTA,-0.451
TCAAATCTCTCATGTTACACTGTGCTA,1.26
GAAGATCTCAGTATCGAGACGTGCTAG,1.58
TTTGATATCGGGTATCGATTAGTGCTA,3.23

# Some of these lines once more (sample 4):
Strand,fitted relative affinity [z-score]
TTAGGACTGGGGACTTGGTTAGTGCTA,-0.225
TCTACAATGGCTTTGCCTTTGTGCTAG,-0.376
CGGATGATCTCTCTGGGCAAGTGCTAG,-0.222
TTAGGTTTCAGACTGGATTAGTGCTAG,2.13
